# Experimental data gathered from unrelated publications.
# Parts stem from different laboratories: compare values within a part only.
# Chain of UniProt P54760 (whole entry, looked up): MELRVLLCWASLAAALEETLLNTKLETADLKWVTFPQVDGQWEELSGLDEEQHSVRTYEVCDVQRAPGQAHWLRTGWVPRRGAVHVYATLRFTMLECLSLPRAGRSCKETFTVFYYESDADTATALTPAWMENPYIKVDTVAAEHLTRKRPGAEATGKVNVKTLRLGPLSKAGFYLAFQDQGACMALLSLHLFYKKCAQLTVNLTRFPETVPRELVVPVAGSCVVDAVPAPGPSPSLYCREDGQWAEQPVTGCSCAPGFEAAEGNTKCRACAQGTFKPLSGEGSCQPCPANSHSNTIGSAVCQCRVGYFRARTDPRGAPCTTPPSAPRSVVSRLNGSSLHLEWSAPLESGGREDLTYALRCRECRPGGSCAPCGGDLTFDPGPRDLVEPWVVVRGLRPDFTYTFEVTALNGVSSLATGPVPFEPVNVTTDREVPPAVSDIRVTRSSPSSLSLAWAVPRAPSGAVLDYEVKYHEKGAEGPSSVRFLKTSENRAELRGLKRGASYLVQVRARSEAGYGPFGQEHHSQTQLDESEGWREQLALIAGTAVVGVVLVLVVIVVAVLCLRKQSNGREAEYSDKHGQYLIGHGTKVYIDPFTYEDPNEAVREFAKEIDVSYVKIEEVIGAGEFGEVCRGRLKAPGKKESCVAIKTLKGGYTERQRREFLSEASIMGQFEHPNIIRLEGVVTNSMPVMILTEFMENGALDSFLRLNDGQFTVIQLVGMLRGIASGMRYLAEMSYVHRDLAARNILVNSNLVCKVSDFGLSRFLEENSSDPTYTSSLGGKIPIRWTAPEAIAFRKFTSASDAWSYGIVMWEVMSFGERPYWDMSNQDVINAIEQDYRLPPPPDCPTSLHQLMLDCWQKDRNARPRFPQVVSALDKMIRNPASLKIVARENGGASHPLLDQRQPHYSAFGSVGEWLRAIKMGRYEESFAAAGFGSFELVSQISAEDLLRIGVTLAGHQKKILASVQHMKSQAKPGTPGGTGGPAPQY
# Chain of UniProt Q8IW41 (whole entry, looked up): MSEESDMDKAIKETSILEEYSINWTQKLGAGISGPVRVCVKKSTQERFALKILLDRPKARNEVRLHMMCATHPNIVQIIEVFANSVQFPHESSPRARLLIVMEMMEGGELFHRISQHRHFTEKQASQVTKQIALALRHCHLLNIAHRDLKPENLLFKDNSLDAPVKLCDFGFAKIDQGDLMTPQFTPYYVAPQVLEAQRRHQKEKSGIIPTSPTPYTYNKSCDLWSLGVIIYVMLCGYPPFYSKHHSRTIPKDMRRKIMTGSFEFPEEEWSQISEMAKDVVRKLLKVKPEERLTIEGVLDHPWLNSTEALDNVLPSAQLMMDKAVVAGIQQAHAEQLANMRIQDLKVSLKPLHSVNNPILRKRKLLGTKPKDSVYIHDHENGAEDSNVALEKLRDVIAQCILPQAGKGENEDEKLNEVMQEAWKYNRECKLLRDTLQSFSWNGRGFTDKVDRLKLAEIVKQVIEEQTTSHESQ
# Chain of UniProt Q9UEE5 (whole entry, looked up): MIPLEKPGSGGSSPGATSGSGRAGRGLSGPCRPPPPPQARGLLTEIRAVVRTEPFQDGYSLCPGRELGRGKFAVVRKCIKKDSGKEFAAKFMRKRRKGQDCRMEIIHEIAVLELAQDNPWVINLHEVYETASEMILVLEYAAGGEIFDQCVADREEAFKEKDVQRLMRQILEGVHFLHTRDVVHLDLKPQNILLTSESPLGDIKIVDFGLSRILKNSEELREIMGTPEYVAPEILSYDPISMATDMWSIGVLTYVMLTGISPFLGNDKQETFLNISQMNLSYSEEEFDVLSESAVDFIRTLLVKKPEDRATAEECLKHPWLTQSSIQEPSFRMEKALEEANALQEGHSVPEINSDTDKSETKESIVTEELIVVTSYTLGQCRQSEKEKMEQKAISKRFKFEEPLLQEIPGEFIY
# Chain of UniProt P30530 (whole entry, looked up): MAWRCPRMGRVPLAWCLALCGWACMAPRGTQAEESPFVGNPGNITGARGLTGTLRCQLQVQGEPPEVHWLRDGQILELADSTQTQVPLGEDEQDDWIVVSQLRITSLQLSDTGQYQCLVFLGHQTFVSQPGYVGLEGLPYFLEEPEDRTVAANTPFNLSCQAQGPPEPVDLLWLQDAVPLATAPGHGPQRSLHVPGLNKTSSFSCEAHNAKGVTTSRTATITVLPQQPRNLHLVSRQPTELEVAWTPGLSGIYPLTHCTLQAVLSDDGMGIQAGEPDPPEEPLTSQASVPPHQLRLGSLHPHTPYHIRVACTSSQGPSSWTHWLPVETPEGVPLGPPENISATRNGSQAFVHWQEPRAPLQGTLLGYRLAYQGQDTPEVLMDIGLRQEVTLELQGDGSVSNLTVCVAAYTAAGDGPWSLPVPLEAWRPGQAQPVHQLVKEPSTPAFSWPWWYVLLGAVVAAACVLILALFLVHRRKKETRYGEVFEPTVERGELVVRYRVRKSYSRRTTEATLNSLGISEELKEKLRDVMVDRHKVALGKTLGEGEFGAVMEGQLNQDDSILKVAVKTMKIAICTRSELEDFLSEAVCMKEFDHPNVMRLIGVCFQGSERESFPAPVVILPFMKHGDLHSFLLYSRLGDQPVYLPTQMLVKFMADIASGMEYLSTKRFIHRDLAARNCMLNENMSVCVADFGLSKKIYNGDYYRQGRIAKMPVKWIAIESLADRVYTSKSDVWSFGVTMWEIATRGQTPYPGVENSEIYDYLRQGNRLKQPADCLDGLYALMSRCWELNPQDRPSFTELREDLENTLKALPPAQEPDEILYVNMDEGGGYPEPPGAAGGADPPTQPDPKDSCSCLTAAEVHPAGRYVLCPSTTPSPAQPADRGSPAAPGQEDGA
# Chain of UniProt Q05397 (whole entry, looked up): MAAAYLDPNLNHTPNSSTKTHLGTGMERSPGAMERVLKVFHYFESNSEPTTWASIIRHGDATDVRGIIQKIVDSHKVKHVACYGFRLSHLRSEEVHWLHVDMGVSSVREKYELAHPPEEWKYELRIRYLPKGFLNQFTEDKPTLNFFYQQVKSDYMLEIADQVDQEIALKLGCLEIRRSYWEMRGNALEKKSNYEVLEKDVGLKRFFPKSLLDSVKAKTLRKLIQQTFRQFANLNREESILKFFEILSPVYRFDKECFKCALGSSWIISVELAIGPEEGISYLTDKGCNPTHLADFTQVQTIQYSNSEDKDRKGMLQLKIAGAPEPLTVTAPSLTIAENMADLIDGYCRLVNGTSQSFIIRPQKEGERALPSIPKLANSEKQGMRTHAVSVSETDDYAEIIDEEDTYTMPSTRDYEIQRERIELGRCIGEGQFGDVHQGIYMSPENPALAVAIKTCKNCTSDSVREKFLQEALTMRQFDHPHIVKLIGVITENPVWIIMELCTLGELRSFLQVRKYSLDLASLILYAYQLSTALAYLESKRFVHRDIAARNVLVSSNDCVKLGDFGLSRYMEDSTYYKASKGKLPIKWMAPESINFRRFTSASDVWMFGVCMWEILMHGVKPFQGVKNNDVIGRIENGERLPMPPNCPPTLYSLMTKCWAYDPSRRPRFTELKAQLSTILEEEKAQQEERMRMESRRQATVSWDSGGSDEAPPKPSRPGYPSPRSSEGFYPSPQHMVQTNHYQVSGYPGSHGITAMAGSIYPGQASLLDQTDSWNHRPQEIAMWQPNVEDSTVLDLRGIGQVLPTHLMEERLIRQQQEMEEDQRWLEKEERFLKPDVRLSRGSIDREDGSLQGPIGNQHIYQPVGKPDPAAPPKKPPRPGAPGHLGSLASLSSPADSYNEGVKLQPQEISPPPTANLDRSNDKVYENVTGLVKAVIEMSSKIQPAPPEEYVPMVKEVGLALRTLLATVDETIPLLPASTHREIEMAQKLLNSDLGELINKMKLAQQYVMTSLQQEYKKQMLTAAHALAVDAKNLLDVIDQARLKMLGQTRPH
# Chain of UniProt Q96PN8 (whole entry, looked up): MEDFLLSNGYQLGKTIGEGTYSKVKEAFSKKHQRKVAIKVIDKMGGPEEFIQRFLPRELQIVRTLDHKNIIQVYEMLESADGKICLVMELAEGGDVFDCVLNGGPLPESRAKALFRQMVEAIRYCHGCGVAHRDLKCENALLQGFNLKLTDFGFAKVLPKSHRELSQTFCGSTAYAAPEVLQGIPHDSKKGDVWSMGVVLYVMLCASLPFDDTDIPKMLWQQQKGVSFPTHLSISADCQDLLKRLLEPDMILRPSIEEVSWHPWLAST

# Sample 1
# Compound: c1cc(-c2cnn3cc(-c4ccc(OCCN5CCCCC5)cc4)cnc23)ccn1
# Effect on: enzyme activity
# Action: inhibitor
# Concentration: 0.5 µM
# Relative to: control
target,remaining activity [%]
"Phosphorylase b kinase gamma catalytic chain, skeletal muscle/heart isoform (PHKG1, Homo sapiens, UniProt Q16816)",13.7
"Mitogen-activated protein kinase kinase kinase kinase 4 (MAP4K4, Homo sapiens, UniProt O95819)",29
"Homeodomain-interacting protein kinase 4 (HIPK4, Homo sapiens, UniProt Q8NE63)",115
"Cyclin-dependent kinase 6, with cyclin D3 (CDK6, Homo sapiens, UniProt Q00534)",14.8
"Serine/threonine-protein kinase WNK3 (WNK3, Homo sapiens, UniProt Q9BYP7)",78.1
"Tyrosine-protein kinase Blk (BLK, Homo sapiens, UniProt P51451)",84.5
"Serine/threonine-protein kinase 17A (STK17A, Homo sapiens, UniProt Q9UEE5)",48.8
"Tyrosine-protein kinase Srms (SRMS, Homo sapiens, UniProt Q9H3Y6)",98
"Tyrosine-protein kinase receptor UFO (AXL, Homo sapiens, UniProt P30530)",91.1
"Ephrin type-B receptor 1 (EPHB1, Homo sapiens, UniProt P54762)",17
"Homeodomain-interacting protein kinase 2 (HIPK2, Homo sapiens, UniProt Q9H2X6)",70.8
"Serine/threonine-protein kinase 16 (STK16, Homo sapiens, UniProt O75716)",40.9
"Cyclin-dependent kinase 4, with cyclin D3 (CDK4, Homo sapiens, UniProt P11802)",60.7
"3-phosphoinositide-dependent protein kinase 1 (PDPK1, Homo sapiens, UniProt O15530)",110
"Ephrin type-B receptor 4 (EPHB4, Homo sapiens, UniProt P54760)",37.7
"Ribosomal protein S6 kinase alpha-5 (RPS6KA5, Homo sapiens, UniProt O75582)",83
"Calcium/calmodulin-dependent protein kinase type II subunit beta (CAMK2B, Homo sapiens, UniProt Q13554)",67.2
"Ribosomal protein S6 kinase alpha-6 (RPS6KA6, Homo sapiens, UniProt Q9UK32)",74.3
"Cyclin-dependent kinase 1, with cyclin B (CDK1, Homo sapiens, UniProt P06493)",79.3
"MAP kinase-activated protein kinase 3 (MAPKAPK3, Homo sapiens, UniProt Q16644)",94.2
"Dual specificity tyrosine-phosphorylation-regulated kinase 3 (DYRK3, Homo sapiens, UniProt O43781)",76.8
"Ephrin type-A receptor 4 (EPHA4, Homo sapiens, UniProt P54764)",37.7

# Sample 2
# Compound: C=CCc1ccc(O)c(-c2cc(CC=C)ccc2O)c1
# ANO1 del476-501/E649A/R541A: Anoctamin-1 (ANO1, Homo sapiens, UniProt Q5XXA6, del476-501/E649A/R541A)
# Chain of UniProt Q5XXA6 (whole entry, unmodified, looked up): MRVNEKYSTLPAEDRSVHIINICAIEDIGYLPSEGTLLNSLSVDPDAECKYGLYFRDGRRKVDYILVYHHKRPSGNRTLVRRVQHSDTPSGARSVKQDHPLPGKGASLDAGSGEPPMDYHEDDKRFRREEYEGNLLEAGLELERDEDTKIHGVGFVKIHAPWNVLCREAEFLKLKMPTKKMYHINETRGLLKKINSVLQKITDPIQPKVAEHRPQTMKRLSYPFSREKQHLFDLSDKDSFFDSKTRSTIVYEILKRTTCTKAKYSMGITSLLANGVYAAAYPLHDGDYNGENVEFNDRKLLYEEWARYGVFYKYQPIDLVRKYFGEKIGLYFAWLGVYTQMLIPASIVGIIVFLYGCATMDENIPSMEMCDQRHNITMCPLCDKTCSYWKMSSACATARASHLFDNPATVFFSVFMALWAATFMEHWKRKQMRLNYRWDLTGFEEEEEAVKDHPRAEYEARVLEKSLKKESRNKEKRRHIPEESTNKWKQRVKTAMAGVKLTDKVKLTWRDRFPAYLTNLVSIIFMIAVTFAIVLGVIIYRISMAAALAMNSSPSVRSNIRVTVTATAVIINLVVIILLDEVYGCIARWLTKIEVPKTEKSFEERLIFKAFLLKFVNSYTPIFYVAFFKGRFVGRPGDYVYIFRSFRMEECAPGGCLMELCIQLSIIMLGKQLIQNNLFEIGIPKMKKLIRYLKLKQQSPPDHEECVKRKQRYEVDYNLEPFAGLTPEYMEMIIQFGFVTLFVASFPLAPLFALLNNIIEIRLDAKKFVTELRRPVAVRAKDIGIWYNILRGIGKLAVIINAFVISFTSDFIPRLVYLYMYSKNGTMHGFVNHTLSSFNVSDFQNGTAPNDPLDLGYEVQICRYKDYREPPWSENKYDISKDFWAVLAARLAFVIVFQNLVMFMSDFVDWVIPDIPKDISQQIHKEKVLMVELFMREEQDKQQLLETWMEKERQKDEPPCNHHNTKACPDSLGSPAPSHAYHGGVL
# ANO1 del476-501/E649A: Anoctamin-1 (ANO1, Homo sapiens, UniProt Q5XXA6, del476-501/E649A)
target,assay,setting,normalized current
"Anoctamin-1 (ANO1, Homo sapiens, UniProt Q5XXA6, del476-501/E659A)","chloride current, inside-out patch clamp","30 µM, membrane voltage 60 mV",0.444
"Anoctamin-1 (ANO1, Homo sapiens, UniProt Q5XXA6, del476-501/K629A)","chloride current, inside-out patch clamp","30 µM, membrane voltage 0 mV",0.0008
ANO1 del476-501/E649A/R541A,"chloride current, inside-out patch clamp","30 µM, membrane voltage -20 mV",-0.0869
ANO1 del476-501/E649A/R541A,"chloride current, inside-out patch clamp","30 µM, membrane voltage -40 mV",-0.169
"Anoctamin-1 (ANO1, Homo sapiens, UniProt Q5XXA6, del476-501/R541A)","chloride current, whole-cell voltage clamp","10 µM, membrane voltage 0 mV, added: 4 µM Ca2+ (saturating)",-0.0042
TMEM16A (human) K603A/E623A,"chloride current, inside-out patch clamp","30 µM, membrane voltage -60 mV",-0.196
ANO1 del476-501/E649A/R541A,"chloride current, inside-out patch clamp","30 µM, membrane voltage 0 mV",0.0068
"Anoctamin-1 (ANO1, Homo sapiens, UniProt Q5XXA6, del476-501/E659A/K629A)","chloride current, inside-out patch clamp","30 µM, membrane voltage -20 mV",-0.122
ANO1 del476-501/E649A,"ion current, inside-out patch clamp","30 µM, E623A mutant at 0 mV",-0.0002
ANO1 del476-501/E649A,"ion current, inside-out patch clamp","30 µM, E623A mutant at -60 mV",-0.374
human TMEM16A K603A/E623A,"chloride current, inhibitor, inside-out patch clamp","30 µM, at -100 mV",-0.313
ANO1 del476-501/E649A/R541A,"chloride current, inside-out patch clamp","30 µM, membrane voltage 100 mV",0.79

# Sample 3
# Structure (SMILES): CC(C)S(=O)(=O)c1ccc2nccc(Nc3ccc4sc(C5CCCC5)nc4c3)c2c1.Cl
# Effect on: kinase activity
# Action: inhibitor
# Concentration: 1 µM
target,remaining activity
"Serine/threonine-protein kinase PRP4 homolog (PRPF4B, Homo sapiens, UniProt Q13523)",94%
"Protein kinase C theta type (PRKCQ, Homo sapiens, UniProt Q04759)",97%
"Serine/threonine-protein kinase MAK (MAK, Homo sapiens, UniProt P20794)",109%
"Serine/threonine-protein kinase Chk1 (CHEK1, Homo sapiens, UniProt O14757)",105%
"Serine/threonine-protein kinase STK11 (STK11, Homo sapiens, UniProt Q15831)",105%
"Focal adhesion kinase 1 (PTK2, Homo sapiens, UniProt Q05397)",95%
"Calcium/calmodulin-dependent protein kinase type II subunit beta (CAMK2B, Homo sapiens, UniProt Q13554)",94%
"Tau-tubulin kinase 2 (TTBK2, Homo sapiens, UniProt Q6IQ55)",94%
"Serine/threonine-protein kinase 3 (STK3, Homo sapiens, UniProt Q13188)",100%
"MAP kinase-activated protein kinase 5 (MAPKAPK5, Homo sapiens, UniProt Q8IW41)",89%
"Proto-oncogene tyrosine-protein kinase receptor Ret (RET, Homo sapiens, UniProt P07949)",101%
"Calcium/calmodulin-dependent protein kinase type 1 (CAMK1, Homo sapiens, UniProt Q14012)",94%
"cAMP-dependent protein kinase catalytic subunit beta (PRKACB, Homo sapiens, UniProt P22694)",96%
"Tyrosine-protein kinase receptor UFO (AXL, Homo sapiens, UniProt P30530)",98%
"Serine/threonine-protein kinase NIM1 (NIM1K, Homo sapiens, UniProt Q8IY84)",101%
"Mast/stem cell growth factor receptor Kit (KIT, Homo sapiens, UniProt P10721)",78%
"Serine/threonine-protein kinase WNK2 (WNK2, Homo sapiens, UniProt Q9Y3S1)",85%
"Protein kinase C zeta type (PRKCZ, Homo sapiens, UniProt Q05513)",121%

# Sample 4
# Compound: O=C(N1CCS(=O)(=O)CC1)N1C[C@H](c2ccc(OC(F)(F)F)cc2)C[C@H](c2nc(C3CC3)no2)C1
# Concentration: 1 µM
target,effect on,method,remaining binding
"Testis-specific serine/threonine-protein kinase 3 (TSSK3, Homo sapiens, UniProt Q96PN8)",cell-free assay,competition with immobilised ligand,100%
"Receptor-type tyrosine-protein kinase FLT3 (FLT3, Homo sapiens, UniProt P36888, F691L/ITD)",cell-free assay,competition with immobilised ligand,93%
"Phosphatidylinositol 4,5-bisphosphate 3-kinase catalytic subunit alpha isoform (PIK3CA, Homo sapiens, UniProt P42336, E545K)",cell-free assay,competition with immobilised ligand,90%
"Protein kinase C eta type (PRKCH, Homo sapiens, UniProt P24723)",cell-free assay,competition with immobilised ligand,100%
"Epidermal growth factor receptor (EGFR, Homo sapiens, UniProt P00533, L858R/T790M)",cell-free assay,competition with immobilised ligand,59%
"AP2-associated protein kinase 1 (AAK1, Homo sapiens, UniProt Q2M2I8)",binding,,99%
"Proto-oncogene tyrosine-protein kinase receptor Ret (RET, Homo sapiens, UniProt P07949)",cell-free assay,competition with immobilised ligand,93%
"Interleukin-1 receptor-associated kinase 1 (IRAK1, Homo sapiens, UniProt P51617)",cell-free assay,competition with immobilised ligand,92%
"Phosphatidylinositol 4,5-bisphosphate 3-kinase catalytic subunit alpha isoform (PIK3CA, Homo sapiens, UniProt P42336)",cell-free assay,competition with immobilised ligand,100%
"Serine/threonine-protein kinase MARK2 (MARK2, Homo sapiens, UniProt Q7KZI7)",cell-free assay,competition with immobilised ligand,100%
"MAP kinase-activated protein kinase 5 (MAPKAPK5, Homo sapiens, UniProt Q8IW41)",cell-free assay,competition with immobilised ligand,94%
"Hepatocyte growth factor receptor (MET, Homo sapiens, UniProt P08581, Y1235D)",cell-free assay,competition with immobilised ligand,100%
"Serine/threonine-protein kinase haspin (HASPIN, Homo sapiens, UniProt Q8TF76)",cell-free assay,competition with immobilised ligand,95%
"Ephrin type-B receptor 4 (EPHB4, Homo sapiens, UniProt P54760)",cell-free assay,competition with immobilised ligand,100%
"Fibroblast growth factor receptor 3 (FGFR3, Homo sapiens, UniProt P22607, G697C)",cell-free assay,competition with immobilised ligand,100%
"Serine/threonine-protein kinase 32A (STK32A, Homo sapiens, UniProt Q8WU08)",cell-free assay,competition with immobilised ligand,89%
"Focal adhesion kinase 1 (PTK2, Homo sapiens, UniProt Q05397)",cell-free assay,competition with immobilised ligand,93%
"Serine/threonine-protein kinase ULK2 (ULK2, Homo sapiens, UniProt Q8IYT8)",cell-free assay,competition with immobilised ligand,75%
"Cyclin-dependent kinase-like 5 (CDKL5, Homo sapiens, UniProt O76039)",binding,competition with immobilised ligand,100%
"Serine/threonine-protein kinase mTOR (MTOR, Homo sapiens, UniProt P42345)",cell-free assay,competition with immobilised ligand,100%
"Ribosomal protein S6 kinase alpha-6, N-terminal kinase domain (RPS6KA6, Homo sapiens, UniProt Q9UK32)",cell-free assay,competition with immobilised ligand,76%
"Insulin receptor (INSR, Homo sapiens, UniProt P06213)",cell-free assay,competition with immobilised ligand,94%
"Dual specificity mitogen-activated protein kinase kinase 7 (MAP2K7, Homo sapiens, UniProt O14733)",cell-free assay,competition with immobilised ligand,100%
"Serine/threonine-protein kinase 17A (STK17A, Homo sapiens, UniProt Q9UEE5)",cell-free assay,competition with immobilised ligand,100%
"Serine/threonine-protein kinase 36 (STK36, Homo sapiens, UniProt Q9NRP7)",cell-free assay,competition with immobilised ligand,100%
